Measured values collected from several papers.
A part holds a random share of what one study measured.

Sample 1
Target: RNA binding protein fox-1 homolog 2, RRM domain, GST-SBP tag (RBFOX2, Homo sapiens, UniProt O43251-10, residues 100-194)
Technique: RNA Bind-n-Seq
Form: RNA
Sample: in vitro
Concentration: 365 nM
Notes: natural RNA segment, single round, ends assumed
Relative to: no-protein control
Direction: higher = stronger binding
Endpoint: RBNS enrichment (R)
Constant ends, left off below: GGGAGUUCUACAGUCCGACGAUC … UGGAAUUCUCGGGUGCCAA
Construct (chain): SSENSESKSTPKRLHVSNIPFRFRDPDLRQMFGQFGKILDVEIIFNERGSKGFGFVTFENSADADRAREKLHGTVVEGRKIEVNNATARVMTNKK
Sequence = AAACUCCCUCUGGCUGCUGCUGCUGCUUUUUGGUGUCCCGACAUACCUACGCCCCCGUUUUAUGGGUUUGGCUUAGUUGAAGAGGAAAGGGUUGUGCAAGGAGAGCAGGA; value = 0.63
Sequence = UGGGGAGCAGGGACGGCCAUGGGCACGCCUGGCCACGCUUUACCGACUGCUGACCCCCUGGGCCAGGUGAGGUUGGGGCCUGUGGGCCGCCAGUCCAUACGGUGCUGUCA; value = 0.342
Sequence = AUUUCCAGUUUUAAAACUGCCCCUCAGAUACAAUUUCAAAGUAGGGUACACAUUAGAGUGUCUUUGAGUUCAACAAGUUGGUACUGUUGCAAACACCUUCUGAAUUGCCA; value = 0.411
Sequence = ACAUUUCUUGGAGGUGGCUGUGUGGGGAACGGCUUGCUUACAGGUACAGCAGGUACAACCGCCUGACAGUCUCACAGGUUGUAUCCCACUCCUUACCUGUGGCCCCACCC; value = 0.372
Sequence = AGAAUCCCUGUUCCCUAUGUCACGUUCCAGCAUUGUAUAGCACAGUUCCAUGUCACAAACAGGAAGGUUAGAAACACUAAGGUCUGUGAACAUCACUGCUGCAGCGAGGC; value = 0.295
Sequence = UCCCAAGCCCGAGCAGAGGGUCAUGCGGGCCCCACAGGAGAAGCGGCCAGGGCCCGCGGGGGGCACCACCUGUGGACAGCCCUCCUGUCCCCAAGCUUUCAGGCAGGCAC; value = 0.185
Sequence = ACUCUGAGGAAACCUAGGAAAUCUCGGUGUACUAGGAAGUGAAUCCUGCAGGACAGCUGCACUCAGGGAUACGCCCAACACCAUGGCCAGGGUCAAAGGUGAAGAAAGCA; value = 0.953
Sequence = CACCACCAAAACCAGUUUAUGCAGUUGGACUCCAAGCUGUAACUUCCUAGAGUUGCACCCUAGCAACCUAGCCAGAAAAGCAAGUGGCAAGAGGAUUAUGGCUAACAAGA; value = 0.374
Sequence = GGUGACAAAAGCCACCCUGAGUGAUACUAGGCUGCCUGAACCUUUGGGUGGGAGUGGAAGUCCCUAGCACACAGCUUUGUGGAGACCUCCACUCUCACUCUUGGUGCAAC; value = 0.279
Sequence = AGACAGAUGAUUACUAUGCCUCAUGUGCUGUGUGCUCUUUGAAAGGAAUGACAGCAGACUACAAAGCAAAUAAGAUAUACUGAGCCUCAACAGAUUGCCUGCUCCUCAGA; value = 0.377
Sequence = GAGGAACUUACUGUACAAUAUCUAAAAAGAAAGUCACUGGGGAAAACCUUUCCUCCUUCCUCCCUCACAGGUUGUUUGAGUGUGUAGGAAUCUGCACAAGAGAGGAGGUC; value = 0.49
Sequence = AGAGGAACUCCAGGAGUGGAAGGUGAACCUCAGAGGAGACGCUGGCUCAGGCCUUGGCCCUCUAGGCAGGGAAGCUGGACUGACCAUAUCUGCUGGGCAUCUGAUCUGCC; value = 0.608

Sample 2
Target: Sal-like protein 4, full length isoform A (SALL4, Homo sapiens, UniProt Q9UJQ4, residues 1-1053)
Chain of UniProt Q9UJQ4 (whole entry, looked up): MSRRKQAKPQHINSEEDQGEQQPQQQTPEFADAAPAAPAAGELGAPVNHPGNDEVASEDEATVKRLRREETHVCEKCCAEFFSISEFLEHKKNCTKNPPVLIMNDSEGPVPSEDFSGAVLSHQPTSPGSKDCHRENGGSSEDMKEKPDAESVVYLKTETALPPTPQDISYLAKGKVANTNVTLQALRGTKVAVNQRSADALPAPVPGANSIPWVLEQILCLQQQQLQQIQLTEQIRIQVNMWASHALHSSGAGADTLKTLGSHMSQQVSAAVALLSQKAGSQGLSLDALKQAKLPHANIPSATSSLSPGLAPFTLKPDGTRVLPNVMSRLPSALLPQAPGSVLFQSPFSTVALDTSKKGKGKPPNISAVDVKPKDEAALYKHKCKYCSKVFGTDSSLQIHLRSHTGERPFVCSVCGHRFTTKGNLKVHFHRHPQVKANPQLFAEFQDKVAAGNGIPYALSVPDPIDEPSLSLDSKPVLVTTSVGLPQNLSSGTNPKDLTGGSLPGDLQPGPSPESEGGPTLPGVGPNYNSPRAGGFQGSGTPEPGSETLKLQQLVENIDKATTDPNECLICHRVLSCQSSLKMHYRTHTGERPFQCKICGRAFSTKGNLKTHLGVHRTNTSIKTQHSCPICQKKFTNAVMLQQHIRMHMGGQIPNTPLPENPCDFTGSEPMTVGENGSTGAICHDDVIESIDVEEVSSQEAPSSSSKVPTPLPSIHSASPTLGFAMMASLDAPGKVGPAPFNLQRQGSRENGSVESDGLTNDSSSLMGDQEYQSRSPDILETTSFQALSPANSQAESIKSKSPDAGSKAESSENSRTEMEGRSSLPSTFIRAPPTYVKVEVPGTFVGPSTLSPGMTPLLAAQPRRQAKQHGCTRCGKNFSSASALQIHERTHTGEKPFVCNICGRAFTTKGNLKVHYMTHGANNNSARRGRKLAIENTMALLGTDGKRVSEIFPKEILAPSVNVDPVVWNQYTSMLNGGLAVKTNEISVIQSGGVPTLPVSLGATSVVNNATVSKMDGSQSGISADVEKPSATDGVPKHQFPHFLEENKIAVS
Technique: universal PBM
Form: double-stranded DNA, one strand shown
Sample: in vitro
Concentration: 600 nM
Notes: 8-mer, flanks averaged, mean of replicates
Direction: higher = stronger binding
Endpoint: E-score
Sequence = CCAGATGC; value = -0.157
Sequence = GGCTCGAA; value = -0.258
Sequence = GGCGTTCA; value = -0.261
Sequence = CGGATGAC; value = -0.177
Sequence = CCCTCGTA; value = -0.135
Sequence = CAACGGTC; value = -0.164
Sequence = CGATGCAC; value = -0.156
Sequence = CCGGGCTC; value = -0.386
Sequence = ACCTTATA; value = 0.235
Sequence = AAGTAGCT; value = 0.0314
Sequence = ACGACCCT; value = -0.25
Sequence = AATTCAGC; value = 0.00053
Sequence = GCGCTCAA; value = -0.165
Sequence = ATCCAGCC; value = -0.227
Sequence = TCAGTCCA; value = -0.197
Sequence = TCCCGAGA; value = -0.236
Sequence = CCGGGACA; value = -0.239
Sequence = CGAAGTAG; value = 0.00958
Sequence = AGAACATG; value = 0.0757
Sequence = CCCAGCGA; value = -0.288
Sequence = CTGTTACA; value = 0.0812
Sequence = CCCCCAGA; value = -0.274
Sequence = GCGACACC; value = -0.31
Sequence = ATAGTTCC; value = 0.111
Sequence = GAACAAGC; value = 0.0283

Sample 3
Target: RING finger protein unkempt homolog, zinc fingers 1-6, SBP tag (UNK, Homo sapiens, UniProt Q9C0B0, residues 30-357)
Chain of UniProt Q9C0B0 (30-357, looked up): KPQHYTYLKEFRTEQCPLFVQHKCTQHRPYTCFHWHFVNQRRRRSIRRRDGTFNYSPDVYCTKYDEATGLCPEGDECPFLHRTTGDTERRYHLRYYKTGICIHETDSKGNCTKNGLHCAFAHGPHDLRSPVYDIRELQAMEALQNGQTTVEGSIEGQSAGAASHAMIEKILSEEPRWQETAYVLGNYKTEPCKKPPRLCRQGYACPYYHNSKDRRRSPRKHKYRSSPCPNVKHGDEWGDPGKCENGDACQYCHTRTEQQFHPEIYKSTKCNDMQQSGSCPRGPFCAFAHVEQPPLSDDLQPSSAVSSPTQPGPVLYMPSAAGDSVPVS
Technique: RNA Bind-n-Seq
Form: RNA
Sample: in vitro
Concentration: 100 nM
Notes: RNA with constant flanks, vertebrate orthologous sites, ends assumed
Relative to: input RNA pool
Direction: higher = stronger binding
Endpoint: bound/input enrichment
Constant ends, left off below: GGGAGUUCUACAGUCCGACGAUC … CAACAGAGGAUUGAGCAUCA
Sequence = UGGGUUACUCCUAUUAUUAUCAAGUAGCUGGAAUUGUGAAGGUUGGAGUAGUUAGAUCUUUAGCUUUUACUCCUUAUUUUUUUGUAUUACUAUCCAUGUGUAUAAAUUAUUGAUCAUGUU; value = 1.51 ratio
Sequence = GUGUUGGUACAGACAGCUCUGUACCAAUGCUCAUCGUCCCUCGUUCAUACCGACCAUACCUAGUUAUAGGAAUUUAAUAUUUUUUAAAGUUUUACAUUGCUGUAUAUUAAAAAAUCUGUU; value = 0.498 ratio
Sequence = UUGACUUCGGACGUCCGCCCUUCCUCGGCGCGAAGGCUGUUCAGUCCCGGGGUUUGCAAGUUUGUCGUUCUCUCCGGGACUCGAGGCUCCUGCCGCAGCCAUGAUCCGCCAGAUCAUCGG; value = 0.0898 ratio
Sequence = UGGUGCCCCACCCUUGUGAGAGAGAGUGGGGAAAGCAGGUGACCCUCAGCUGUUCCGAUUUAGGUUUUUUUUGUUUCUGUUUUUUAAGAGUUACUGUAUUUAUUAUGACGAUGGUGACUC; value = 1.74 ratio
Sequence = AGGAAAUGCUGGCUGCAAACCCUCAGGAUCGUCCAGAUGCUUUUGAACUAGAACUCAGAUUAGUACAAAUUGCAUUUAAAGAUAGCAGCUGGGAGACGUGACACAUAUUAUUUGCAAAUA; value = 0.944 ratio
Sequence = UUGUUUUGUACAGGGUAUUCUCUGUACUAAUUUGUUGUGGUUAUAAAACAACUAGCAAAACAGCUUACAUUUGUAUUUAUUUUCUAUUCCAUACCUCUCUGCCCCAUGUUUUUUCUCCUC; value = 0.729 ratio
Sequence = UGUGAGCGUCUACAGACAGCUCACCAUUUUUGUCCUGUAUCUGUAAACACUUUCUGUUCUUAGUCUUUUUCUUGUAAAAUUGAUGUUCUUUAAAAUCGUUAAUGUAUCACAGGGCUUAUG; value = 0.506 ratio
Sequence = AGUUUGUAUGUACAUUAUUCACAUUCCUCUGUUGUGUUUGGGAAAAAAAAAAAAGACAUUUUAGCCUUUUUUAAGGUUAUUGAUUUAAUUUCAUGUUAUUUGGUUGCAUGAAGUUGCCCU; value = 0.42 ratio
Sequence = UUCCAUCUCGUGCCUCUCCCAGUGGGGAGUGGGGGAAACUGACCCUCAGCUGUUCCAAUCCAGUGGGGUUUUUUUAAUUUUUUUUUUGAUUUAAAAAAAUAUUGUAUUUAUUAUGACAAU; value = 0.592 ratio
Sequence = GAGUUACAGAUCAGAGGACUCAGAAACAAGAUCAUCUGCCUCAUGGCUACCAUCUUCACUCAGAAACAGAUGCACGCCUCUCUUUUCCAGGAGAAGGCGAGAAGGAAGGGAUGAAACAGC; value = 0.318 ratio
Sequence = AGUCUUACUUGGUUACUAGAAAUGUGUUUUUAUUUAUUGAGGAUAGUUUUGUGCUAAGUCUGUGUUAGAUUUUUGUUGUGUUGCUUUUGUUAUUUAAAAUAAAUAGAACUUUGUAUUUGA; value = 0.744 ratio

Sample 4
Target: Fragile X messenger ribonucleoprotein 1, C-terminal low-complexity region (Fmr1, Mus musculus, UniProt P35922)
Technique: RNA Bind-n-Seq
Form: RNA
Sample: in vitro
Concentration: 200 nM
Notes: whole 134-nt RNA, ends assumed
With: 150 mM KCl
Relative to: input library
Direction: higher = stronger binding
Endpoint: log2 enrichment
Constant ends, left off below: GGGAGUUCUACAGUCCGACGAUC … UGGAAUUCUCGGGUGUCAAGG
Sequence = GCAGGAAGUAAAAACAAAUGGAAAUGCUUCGGAUAGUGGCAGGGGUGGGGGUUGCUAAGGAAAGGGUGGUAUGGGAGUGGGUAAAGAGUU; value = 0.0398
Sequence = AGUCCUGUGCUACACAUCGUAUGUACCGAAUCGGGGUGGGGUUUUUUUGGGGUGGGGAAAGUAUUAUGUUACGCCGUUCGGAUCUGCACU; value = 1.38
Sequence = CCUGUGCUACACAUCGUAUGUACCGAAUCGGUUUUUUGGGUUUUUUGGGGUUUUUUGGGGAAAGUAUUAUGUUACGCCGUUCGGAUCUGC; value = -0.603
Sequence = CCUCAAGUCCUGUGCUACACAUCGUAUGUACCGAAUCGGAAGGAAGGGAAGGAAAGUAUUAUGUUACGCCGUUCGGAUCUGCACUUCCAG; value = 0.275
Sequence = UGGGAGGUGGAUUUUGUUUAUUUUUUUAGCUCAUUUCCUGGGGUGGGAAUUUUUUUUUAAUAUGUGUCAUGAAUAAAGUUGUUUUUGAAA; value = 0.223
Sequence = UCAAGUCCUGUGCUACACAUCGUAUGUACCGAAUCGGGGAAAGGAAAGGAAAGGGAAAGUAUUAUGUUACGCCGUUCGGAUCUGCACUUC; value = -0.465
Sequence = CAAGUCCUGUGCUACACAUCGUAUGUACCGAAUCAAAUUUAAACCCAAAUUUAAAAAAGUAUUAUGUUACGCCGUUCGGAUCUGCACUUC; value = 0.0629
Sequence = UCCUGUGCUACACAUCGUAUGUACCGAAUCGGGGAAAAAAAGGGGUUUUUGGGGUGGGGAAAGUAUUAUGUUACGCCGUUCGGAUCUGCA; value = 0.883
Sequence = UCAAGUCCUGUGCUACACAUCGUAUGUACCGAAUCGGGAAAGGGAAAGGGAAAGGAAAGUAUUAUGUUACGCCGUUCGGAUCUGCACUUC; value = -0.448
Sequence = UUCCCGGAGAACUCGAGUAAAUCUAGAAGUUGCCAGGUUUCAGAACUAUUUAUUCCUUUAAUGUGCAGACGAAGGGAACGUCAUCGUUUG; value = 0.0716
Sequence = UGUUCCUGUUGAUGAAAAUCUUUUCACUGGAGAGGAUUUGGAUGAACUAGAAGAAGAAUUAAAUACACUUGAUUUAGAAGAAUGACACCA; value = -0.362
Sequence = ACCAUGCAGGUGGGCAUCUUUGGGAAGUGGGGCAAGGGGGGGAAAAGGAGGGGGGUAACACUUUGGGAACAGGUGGUCCCAGGUCGUUUC; value = 0.515
Sequence = CUCAAGUCCUGUGCUACACAUCGUAUGUACCGAAUCGGCCGGGGCCGGGCCGGAAAGUAUUAUGUUACGCCGUUCGGAUCUGCACUUCCA; value = -0.187
Sequence = CUCAAGUCCUGUGCUACACAUCGUAUGUACCGAAUCGGGAGGGUUUGGGAGGGAAAGUAUUAUGUUACGCCGUUCGGAUCUGCACUUCCA; value = 1.35

Sample 5
Target: Histone acetyltransferase KAT6A, winged helix 1, GST fusion (KAT6A, Homo sapiens, UniProt Q92794, residues 1-85)
Technique: protein binding microarray
Form: double-stranded DNA, one strand shown
Sample: in vitro
Concentration: not given
Notes: 8-mer, flanks averaged, mean of 2 arrays, mostly near background
Relative to: not given
Direction: higher = stronger binding
Endpoint: E-score
Target sequence (chain): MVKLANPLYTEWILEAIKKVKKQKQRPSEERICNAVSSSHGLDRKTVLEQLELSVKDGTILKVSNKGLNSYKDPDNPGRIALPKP
Sequence = GCACCCCC; value = -0.0299
Sequence = CCACGAAG; value = -0.139
Sequence = TTGACCAA; value = -0.153
Sequence = ACATTCGA; value = -0.0872
Sequence = TGCGTACA; value = 0.0291
Sequence = CGTTAACC; value = 0.152
Sequence = AGCCATAT; value = -0.14
Sequence = ACGGGACA; value = 0.258
Sequence = AGCCGACC; value = 0.326
Sequence = ACGCAGAA; value = 0.0565
Sequence = AGGACACG; value = 0.102
Sequence = AATGACCA; value = -0.187
Sequence = AAGAATAT; value = -0.0715
Sequence = ATCACGAA; value = -0.114
Sequence = GAGGAGAA; value = -0.279
Sequence = ATGGCTTA; value = -0.161
Sequence = ACCTGGTA; value = -0.176
Sequence = ATCCTTCC; value = -0.0812
Sequence = AAAGCTTC; value = -0.0453
Sequence = AACGGAGG; value = 0.152
Sequence = CAGACTAG; value = -0.129
Sequence = CAAGCTAG; value = -0.223
Sequence = AGTAGGAT; value = -0.128
Sequence = GGCTAGAC; value = -0.0263

Excerpt of the above (sample 5):
Sequence = TGCGTACA; value = 0.0291
Sequence = AACGGAGG; value = 0.152
Sequence = AGCCATAT; value = -0.14
Sequence = CAAGCTAG; value = -0.223
Sequence = AAGAATAT; value = -0.0715
Sequence = CCACGAAG; value = -0.139
Sequence = TTGACCAA; value = -0.153
Sequence = AATGACCA; value = -0.187
Sequence = CAGACTAG; value = -0.129
Sequence = AAAGCTTC; value = -0.0453
Sequence = ACCTGGTA; value = -0.176
Sequence = AGCCGACC; value = 0.326
Sequence = ACGCAGAA; value = 0.0565
